Measured values pooled from the literature.
Protocols differ between the studies behind these lines. “And” joins repeats or separate records; there may be more than shown. Numbers after ± are the reported error.

For CCN(C(=O)c1cc(F)ccc1Oc1nncnc1N1CCC2(C1)CN([C@H](CCCN(C)CCOC)C(C)C)C2)C(C)C, the GI50 was > 10000 nM (SU-DHL10; cell growth or viability; 72 h).
The inhibition of Cc1nn(C)cc1-c1cc2c(N3CCC[C@H](C(=O)NCc4ccc(OC(F)(F)F)cc4)C3)ncnc2[nH]1 is reported as 74.8% (NCI-H2228; cell growth or viability, MTT; 1 µg/mL, 72 h).
For Cn1ncc(-c2ccc3c(=O)[nH]nc(CN)c3c2)c1-c1c(F)c(Cl)cc(OC2CC2)c1C#N, the IC50 was 40 nM (CAPAN-1; cell viability, inhibitor, CellTiter-Glo; 120 h, baseline-subtracted).
Under “mean growth percent”, CC(C)Cc1ccc(C(C)C(=O)[Se]CC(=O)Nc2cccc(C(F)(F)F)c2)cc1 (stereo not shown) is recorded as -86.9% (NCI60 renal subpanel; cell growth; 10 µM, 48 h, one-dose).
CCNc1cc2c(cc1C)C1(c3cc(C)c(NCC)cc3O2)c2ccccc2C(=O)N1N=Cc1c[c-]c(-c2ccccn2)cc1.Cc1c(C)c(-c2ccc(-c3ccccc3)cc2)[c-](C)c1C.[Cl-].[Ir+3] — result for “JC-1 monomer cells”: 3.76 ± 0.4% (A549; mitochondrial membrane potential loss, JC-1 flow cytometry; 1.0 x IC50, 24 h).
For Cc1ncsc1-c1ccc(C(C)NC(=O)C2CC(O)CN2C(=O)C(NC(=O)CCCCCCCCCCN2CCCC(Nc3ncc(Cl)c(Nc4ccccc4S(=O)(=O)C(C)C)n3)C2)C(C)(C)C)cc1 (stereo not shown), “log2 fold change” read -1.26 (22Rv1; RNA-seq, refers to: ZKSCAN1 mRNA; concentration not given; baseline: DMSO).
CN1CCN(C(=O)c2ccc(-c3cc4c(N5CCC[C@H](C(=O)NCc6ccc(OC(F)(F)F)cc6)C5)ncnc4[nH]3)cc2)CC1 gave an inhibition of 81.9% (NCI-H2228; cell growth or viability, MTT; 1 µg/mL, 72 h).
Under “log2 fold change”, Cn1ncc2cc(-c3cncc(Cl)c3N3CCC4(CCNC4=O)CC3)ccc21 is recorded as -2.22 (LS174T; gene expression, microarray, refers to: CYP27B1 mRNA; concentration not given, 24 h; baseline: untreated cells).
The Emax of CCCC[C@H](NC(=O)[C@H](CC(C)C)NC(=O)[C@H](CO)NC(=O)[C@H](CO)NC(=O)[C@H](C)NC(=O)[C@H](CO)NC(=O)[C@H](C)N)C(=O)N[C@@H](CC(=O)O)C(=O)N[C@@H](CCCCN)C(=O)N[C@@H](CCC(=O)O)C(=O)N[C@@H](C)C(=O)N[C@H](C(=O)N[C@@H](Cc1ccc(O)cc1)C(=O)N[C@@H](Cc1ccccc1)C(=O)N[C@@H](C)C(=O)N[C@@H](Cc1c[nH]cn1)C(=O)N[C@@H](CC(C)C)C(=O)N[C@@H](CC(=O)O)C(=O)N[C@H](C(=O)N[C@H](C(=O)N[C@@H](Cc1c[nH]c2ccccc12)C(=O)O)[C@@H](C)CC)[C@@H](C)CC)C(C)C is reported as 103 ± 6% (COS-7 ETBR-GFP; calcium flux, agonist; ETBR/ETAR ratio 1:0).
For C[C@H](NC(=O)CN)C(=O)NCC(=O)N[C@@H](C)C(=O)N[C@@H](C)C(=O)NCC(=O)NCC(=O)N[C@@H](C)C(=O)NCC(=O)NCC(=O)NCC(=O)NCC(=O)NCC(=O)NCC(=O)NCC(=O)N[C@@H](CCCCNC(=O)CCCC[C@@H]1SC[C@@H]2NC(=O)N[C@@H]21)C(N)=O, the binding rate was 0.56% and 0.59% and 0.49% (HEK293T-GFP cells; flow cytometry; concentration not given, together with: biotin-labelled peptide).
CCN(CC)CC(=O)Nc1cccc(-n2cc(-c3ccc4ccc(-c5cn(-c6cccc(NC(=O)CN(CC)CC)c6)nn5)cc4c3)nn2)c1 has a fold regulation of -1 fold (RCC4; PCR angiogenesis array, refers to: TIE1; 5 x IC50, 4 h, normoxia; baseline: untreated).
Cc1ccc(C(C)C)c(OCc2ccc(C(=O)N/N=C/c3cccc(O)c3O)cc2)c1 has an efficacy of 35% (LDR; silenced CMV-GFP reporter derepression, qHTS).
COc1ccccc1-c1c[nH]c2ncc(-c3cncc(C(=O)N(C)C)c3)cc12 gave a GI50 of 108 ± 7 nM (Ba/F3 BCR-ABL T315I; cell proliferation; 72 h).
O=C(NCc1ccc(OC(F)(F)F)cc1)[C@H]1CCCN(c2ncnc3[nH]c(-c4cccs4)cc23)C1 has an inhibition of 66% (NCI-H2228; cell growth or viability, MTT; 0.2 µg/mL, 72 h).
O=C(C[Se]C(=O)c1cc2ccccc2o1)Nc1cccc(C(F)(F)F)c1 — result for “mean growth percent”: -84.1% (NCI60 renal subpanel; cell growth; 10 µM, 48 h, one-dose).
For CCCCCCCCCCCC(=O)N[C@H](CO)C[C@@H](O)c1ccccc1, the sphingomyelin level was 88300 pmol/sample and 80000 pmol/sample and 79500 pmol/sample (HeLa; CERT activity, HPLC-MS/MS lipidomics, refers to: sphingomyelin 24; 1 µM, 24 h, not cell-number normalised).
O=C(NCc1ccc(OC(F)(F)F)cc1)[C@H]1CCCN(c2ncnc3[nH]c(-c4ccc(C(F)(F)F)cc4)cc23)C1 has an inhibition of 8.67% (NCI-H2228; cell growth or viability, MTT; 0.008 µg/mL, 72 h).
Cc1sc2c(c1C)C(c1ccc(Cl)cc1)=N[C@@H](CC(=O)NCC(=O)N1CCC3(CCC(C(=O)N4CCN(C(=O)c5cc(Cc6n[nH]c(=O)c7ccccc67)ccc5F)CC4)CC3)CC1)c1nnc(C)n1-2 — result for “cells in G2 phase”: 6% (NCI-H82; 1000 nM, 24 h).
COc1ccc2c(c1)OC1=C(C(=O)CCC1)C2c1c[nH]c2ccccc12 (stereo not shown) — result for mRNA level: “decreased” (mouse preadipocytes; qPCR, refers to: IRS-1; IC20, 14 days, adipogenic induction; baseline: untreated cells).
CO[C@@H]1[C@@H](OC(N)=O)[C@@H](O)[C@H](Oc2ccc3c(O)c(NC(=O)c4ccc(O)c(CC=C(C)C)c4)c(=O)oc3c2C)OC1(C)C gave a colony survival of 88.5% (HCT-116 BRCA2 wild-type; 50 µM, mean of replicates A, B; baseline: untreated).
For O=C(N/N=C/c1ccccn1)c1cc(-c2ccc(Cl)cc2)nc2ccccc12, the efficacy was 72% (LDR; silenced CMV-GFP reporter derepression, qHTS).
The inhibition of O=C(NCc1ccc(OC(F)(F)F)cc1)[C@H]1CCCN(c2ncnc3[nH]c(-c4cc(F)c(F)c(F)c4)cc23)C1 is reported as 55.3% (NCI-H2228; cell growth or viability, MTT; 5 µg/mL, 72 h).
Cc1cc(Cl)cc(-c2ccnc3cc(CN4C(=O)C5C(C4=O)C5(C)C)sc23)c1C[C@@H]1CNCCO1 (stereo partly shown) has a viability of 51.2% (CHP-212; SRB; 0.3125 µM).
The efficacy of Oc1c(/N=N/c2ccccn2)ccc2ccccc12 is reported as 124% (LDR; silenced CMV-GFP reporter derepression, qHTS).
Under “log2 fold change”, CN1CCCNC(=O)c2cccc(c2)C(=O)NCCCN(C)CCCNc2cccc3c2C(=O)c2cccc(c2C3=O)NCCC1 is recorded as -2.54 (SAS; RNA-seq, refers to: MT-ND5 mRNA; 1 µM, 6 h; baseline: untreated cells).
COC(=O)c1cc(NC2=NC(=O)C(=Cc3ccc(N(C)C)cc3)S2)ccc1OC(C)=O gave a metabolite level of -0.05 fold change (MCF7; GC-MS, refers to: L-Aspartic acid; 1 µM; baseline: DMSO).
With Cc1cc(N)ccc1-c1cc2c(N3CCC[C@H](C(=O)NCc4ccc(OC(F)(F)F)cc4)C3)ncnc2[nH]1 the inhibition was 68.2% (NCI-H2228; cell growth or viability, MTT; 0.2 µg/mL, 72 h).
With CCCC(=O)N1CCN(c2ccc(NC(=O)c3ccc([N+](=O)[O-])o3)cc2Cl)CC1 the efficacy was 68% (LDR; silenced CMV-GFP reporter derepression, qHTS).
[BH3-][P+]1(c2ccccc2)CCCCC1 gave a selectivity index of 13.8 (SW480; MTT; 72 h; baseline: IC50 HaCaT over IC50 SW480).
The metabolite level of COC(=O)c1cc(NC2=NC(=O)C(=Cc3ccc(C)cc3)S2)ccc1OC(C)=O is reported as -1.11 fold change (MCF7; GC-MS, refers to: diacetone alcohol; 1 µM; baseline: DMSO).
CC(C)c1ccc(N(C)c2ccc3c(c2)OCC[C@H]3CNc2cnccc2C(=O)O)cc1 has an IC50 of 116 nM (CAPAN-1; cell growth or viability, ATP luminescence; 7 days).
For CC(C)(O)c1ccn2c(-c3ccc(F)c(-c4ccc(F)cc4C#N)c3)cnc2c1F, protein level read “no effect” (HEK-293T stably expressing GABAA receptors; Western blot, refers to: BiP, calnexin, LMAN1; 5 µM, 24 h, chaperones, together with: hispidulin 10 µM).
O=C(C[Se]C(=O)c1ccc2ccccc2n1)Nc1cccc(C(F)(F)F)c1 — result for “mean growth percent”: -90% (NCI60 renal subpanel; cell growth; 10 µM, 48 h, one-dose).
For COc1c(C)c(O)c(C(=O)C=Cc2ccccc2)c(OC)c1C, the selectivity index was 1.06 (KKU-M213; SRB; baseline: normal over KKU-M213 IC50).
With CSC(=S)N/N=C(\C)c1ccc(Nc2nnc(-c3ccc(Cl)cc3)c3ccccc23)cc1 the viability was 50.8% (MCF7; cell growth or viability, MTT; 0.156 µM, 24 h).
COc1ccccc1-c1ccncc1C(=O)Nc1nnc(OCc2ccc(Cl)cc2)s1 — result for “γH2AX foci-positive nuclei”: 58.4% and 57.3% and 58.1% (DLD-1 BRCA2-knockout; immunofluorescence; 10 µM, 96 h, >5 foci per nucleus).
The Emax of N=C(S)N/N=C/c1ncc(C(F)(F)F)cc1Cl is reported as 138% (LDR; silenced CMV-GFP reporter derepression, qHTS).
With Cc1n[nH]c(C)c1-c1cc2c(N3CCC[C@H](C(=O)NCc4ccc(OC(F)(F)F)cc4)C3)ncnc2[nH]1 the inhibition was 76.1% (NCI-H2228; cell growth or viability, MTT; 1 µg/mL, 72 h).
With O=C(C[Se]C(=O)c1cc2ccccc2s1)Nc1cccc(C(F)(F)F)c1 the GI50 was 1630 nM (NCI60 renal subpanel; cell growth, inhibitor; five-dose).
For Cc1cc(NC2CCN(C)CC2)ccc1-c1cc2c(N3CCC[C@H](C(=O)N[C@H](C)c4ccccc4)C3)ncnc2[nH]1, the inhibition was 95.2% (NCI-H2228; cell growth or viability, MTT; 5 µg/mL, 72 h).
With CNS(=O)(=O)Nc1nccc(Cc2c(C)c3ccc(Oc4ncccc4F)cc3oc2=O)c1F the IC50 was 9.78 nM (DoTc2 4510; cell viability, CellTiter-Glo; 7 days).
With O=C(C[Se]C(=O)c1cccnc1Nc1cccc(C(F)(F)F)c1)Nc1cccc(C(F)(F)F)c1 the GI50 was 1920 nM (NCI60 renal subpanel; cell growth, inhibitor; five-dose).
The cell uptake of N#C[C@@H]1CC(F)(F)CN1C(=O)CNC(=O)c1ccnc2c(NC(=O)[C@@H](N)CCCCNC(=O)CCOCCOCCOCCOCCOCCOCCNC(=O)CN3CCN(CC(=O)[O-])CCN(CC(=O)[O-])CCN(CC(=O)[O-])CC3)cccc12.[177Lu+3] is reported as 9.91 ± 0.22% (U-87 MG; 4 h; baseline: added dose).

Excerpt of the above:
CCNc1cc2c(cc1C)C1(c3cc(C)c(NCC)cc3O2)c2ccccc2C(=O)N1N=Cc1c[c-]c(-c2ccccn2)cc1.Cc1c(C)c(-c2ccc(-c3ccccc3)cc2)[c-](C)c1C.[Cl-].[Ir+3] — result for “JC-1 monomer cells”: 3.76 ± 0.4% (A549; mitochondrial membrane potential loss, JC-1 flow cytometry; 1.0 x IC50, 24 h).
For Cc1ncsc1-c1ccc(C(C)NC(=O)C2CC(O)CN2C(=O)C(NC(=O)CCCCCCCCCCN2CCCC(Nc3ncc(Cl)c(Nc4ccccc4S(=O)(=O)C(C)C)n3)C2)C(C)(C)C)cc1 (stereo not shown), “log2 fold change” read -1.26 (22Rv1; RNA-seq, refers to: ZKSCAN1 mRNA; concentration not given; baseline: DMSO).
